# Experimental data collected from several papers.
# Numbers after ± are the reported error.
# Botulinum neurotoxin type A protease: Botulinum neurotoxin type A, protease (Clostridium botulinum, UniProt P0DPI0)
# OPG122: mRNA-decapping protein OPG122 (OPG122, Vaccinia virus, UniProt P04312)
# Lethal factor: Lethal factor (Bacillus anthracis, UniProt P15917)
# rep papain-like protease: Replicase polyprotein 1ab, papain-like protease (rep, Severe acute respiratory syndrome coronavirus 2, UniProt P0DTD1)
Compound,target,assay,test system,setting,Ki [nM]
CSCC[C@H](NC(=O)[C@H](CCCCN)NC(=O)[C@@H](NC(=O)[C@H](C)NC(=O)[C@H](CCCNC(=N)N)NC(=O)[C@@H](N)CCNc1ccc([N+](=O)[O-])cc1[N+](=O)[O-])[C@@H](C)O)C(=O)N[C@@H](CC(C)C)C(N)=O,Botulinum neurotoxin type A protease,"enzyme activity, inhibitor",,,980
Nc1nc2c(ncn2C2OC(COP(=O)(O)OP(=O)(O)OP(=O)(O)O)C(O)C2O)c(=O)[nH]1 (stereo not drawn),OPG122,,,,90
CC[C@H](C)[C@@H]1NC(=O)[C@@H]2CSSC[C@H](NC(=O)[C@H](CCCNC(=N)N)NC(=O)[C@@H]3CSSC[C@H](NC1=O)C(=O)N[C@@H]([C@@H](C)O)C(=O)N[C@@H](CCCNC(=N)N)C(=O)NCC(=O)N[C@@H](Cc1ccccc1)C(=O)N3)C(=O)N1CCC[C@H]1C(=O)N[C@H]1CSSC[C@H](NC(=O)CNC(=O)[C@H](Cc3ccc(O)cc3)NC(=O)[C@H](CCCNC(=N)N)NC(=O)[C@H](CO)NC1=O)C(=O)N[C@@H](Cc1c[nH]c3ccccc13)C(=O)N2,Lethal factor,,,,946 ± 58
Nc1ncnc2c1ncn2C1OC(COP(=O)(O)OP(=O)(O)O)C(O)C1O (stereo not drawn),OPG122,,,,750
CC[C@H](C)[C@@H]1NC(=O)[C@@H](NC(=O)[C@H](CO)NC(=O)[C@@H](N)CCCNC(=N)N)CSSC[C@@H](C(=O)O)NC(=O)[C@H]([C@@H](C)O)NC(=O)CNC(=O)[C@@H]2CSSC[C@@H]3NC(=O)[C@H](CCC(N)=O)NC(=O)[C@H](Cc4ccccc4)NC(=O)[C@H](C)NC(=O)[C@H]([C@@H](C)O)NC(=O)[C@H](CSSC[C@H](NC(=O)[C@H](Cc4ccccc4)NC(=O)[C@H](CO)NC(=O)[C@H](CC(C)C)NC(=O)[C@H](CCC(N)=O)NC(=O)[C@H](Cc4ccc(O)cc4)NC(=O)[C@H](CCCCN)NC(=O)[C@H](CCSC)NC(=O)[C@H](CO)NC(=O)[C@H](Cc4c[nH]cn4)NC(=O)[C@H](CCCCN)NC3=O)C(=O)N[C@@H](CCCNC(=N)N)C(=O)N[C@@H](CCCCN)C(=O)N[C@@H]([C@@H](C)O)C(=O)N2)NC(=O)[C@H](CCCNC(=N)N)NC(=O)[C@H](CO)NC(=O)[C@H](CCCCN)NC(=O)[C@@H]2CCCN2C(=O)[C@H]([C@@H](C)CC)NC(=O)[C@H]([C@@H](C)O)NC(=O)[C@H](CC(=O)O)NC1=O,"KCNA3 (Homo sapiens, UniProt P22001)","potassium current, inhibitor, two-electrode voltage clamp",Xenopus oocytes,,0.034 ± 0.006
Cc1ccc(OCCN(C)C)cc1C(=O)N[C@H](C)c1cc(-c2cnn(CCN3CCOCC3)c2)cc(-c2ccn(C)n2)c1,rep papain-like protease,"enzyme activity, inhibitor, FRET",,,46.9
COC1C(O)C(COP(=O)(O)OP(=O)(O)OP(=O)(O)O)OC1n1cnc2c(=O)[nH]c(N)nc21 (stereo not drawn),OPG122,,,,110
Cc1ccc(OCCN(C)C)cc1C(=O)N[C@H](C)c1cc(-c2cnn(C)c2)cc(-c2cnn(CCN3CCOCC3)c2)c1,rep papain-like protease,"enzyme activity, inhibitor, FRET",,,29.3
O=C(NCCOC(=O)[C@@H]1CCCCN1S(=O)(=O)Cc1ccccc1)c1cccnc1,"Peptidyl-prolyl cis-trans isomerase (Burkholderia pseudomallei, UniProt Q63J95)","enzyme activity, inhibitor",,,290
CSCC[C@H](NC(=O)[C@H](CCCCN)NC(=O)[C@@H](NC(=O)[C@H](C)NC(=O)[C@H](CCCNC(=N)N)NC(=O)[C@H](N)Cc1ccccc1)[C@@H](C)O)C(=O)N[C@@H](CC(C)C)C(N)=O,Botulinum neurotoxin type A protease,"enzyme activity, inhibitor",,,> 200000
Cc1ccc(OCCN(C)C)cc1C(=O)N[C@H](C)c1cc(-c2cnn(C)c2)cc(-c2cnn(C)c2)c1,rep papain-like protease,"enzyme activity, inhibitor, FRET",,,34.3
CCC(Br)C(=O)NNC(=O)c1ccccc1NC(=O)C(Br)CC (stereo not drawn),"Replicase polyprotein 1ab, main protease (rep, Severe acute respiratory syndrome-related coronavirus, UniProt P0C6X7)","enzyme activity, inhibitor",,,23000
Nc1nc2c(ncn2C2CC(O)C(COP(=O)(O)OP(=O)(O)OP(=O)(O)O)O2)c(=O)[nH]1 (stereo not drawn),OPG122,,,,110
CSCC[C@H](NC(=O)[C@H](CCCCN)NC(=O)[C@@H](NC(=O)[C@H](C)NC(=O)[C@H](CCCNC(=N)N)NC(=O)CN)[C@@H](C)O)C(=O)N[C@@H](CC(C)C)C(N)=O,Botulinum neurotoxin type A protease,"enzyme activity, inhibitor",,,3300
CSCC[C@@H](C=O)NC(=O)[C@H](CC(C)C)NC(=O)[C@H](CC(C)C)NC(C)=O,"Replicase polyprotein 1ab, main protease (rep, Middle East respiratory syndrome-related coronavirus, UniProt K9N7C7)","enzyme activity, inhibitor",,,130
CSc1nc(N)nc2c1ncn2C1OC(COP(=O)(O)OP(=O)(O)OP(=O)(O)O)C(O)C1O (stereo not drawn),OPG122,,,,> 800
CSCC[C@H](NC(=O)[C@H](CCCCN)NC(=O)[C@@H](NC(=O)[C@H](C)NC(=O)[C@H](CCCNC(=N)N)NC(=O)[C@H](Cc1ccccc1)NC(C)=O)[C@@H](C)O)C(=O)N[C@@H](CC(C)C)C(N)=O,Botulinum neurotoxin type A protease,"enzyme activity, inhibitor",,,> 200000
Cc1cc([N+](=O)[O-])ccc1NC(=O)C(Br)C(Br)C(=O)O (stereo not drawn),"Replicase polyprotein 1ab, main protease (rep, Severe acute respiratory syndrome-related coronavirus, UniProt P0C6X7)","enzyme activity, inhibitor",,,13000
NC1=NN=Cc2ccccc2[O][V](=[O])[O]1.c1cnc2c(c1)ccc1cccnc12,"Tyrosine-protein phosphatase YopH (Yersinia enterocolitica, UniProt P15273)","enzyme activity, inhibitor",,,20
CC(C)C[C@H](NC(=O)[C@@H](NC(=O)[C@@H](CCCNC(=N)N)NC(=O)[C@@H](CCCNC(=N)N)NC(=O)[C@@H](CCCNC(=N)N)NC(=O)[C@@H](CCCNC(=N)N)NC(=O)[C@@H](CCCNC(=N)N)NC(=O)[C@@H](CCCNC(=N)N)NC(=O)[C@@H](CCCNC(=N)N)NC(=O)[C@@H](CCCNC(=N)N)NC(=O)[C@H](N)CCCNC(=N)N)C(C)C)C(=O)N[C@@H](CCCNC(=N)N)C(=O)NO,Lethal factor,"enzyme activity, inhibitor",,,1.45
Nc1ncnc2c1ncn2C1CC(O)C(COP(=O)(O)OP(=O)(O)OP(=O)(O)O)O1 (stereo not drawn),OPG122,,,,510
"COC(=O)C1C(OC(c2ccc(Cl)cc2)c2ccc(Cl)cc2)CC2CCC1N2C (single isomer, unassigned)",rat sodium channel site 2,radioligand binding,,with: [3H]batrachotoxin benzoate,1030 ± 32
Nc1nc2c(nc(Br)n2C2OC(COP(=O)(O)OP(=O)(O)OP(=O)(O)O)C(O)C2O)c(=O)[nH]1 (stereo not drawn),OPG122,,,,> 800
CCCCCc1ccc(Oc2ccccc2)c(O)c1,"Enoyl-[acyl-carrier-protein] reductase [NADH] (Francisella tularensis subsp. tularensis, UniProt Q5NGQ3)",inhibitor,,"second step, K2",525 ± 8
